Literature values as cited in several papers.
Compare with care: the assays were run in different laboratories. Several values in a cell are separate wells, animals, samples, runs or records. ± marks the error that the study gave.
Chain of UniProt P42336 (whole entry, unmodified, looked up): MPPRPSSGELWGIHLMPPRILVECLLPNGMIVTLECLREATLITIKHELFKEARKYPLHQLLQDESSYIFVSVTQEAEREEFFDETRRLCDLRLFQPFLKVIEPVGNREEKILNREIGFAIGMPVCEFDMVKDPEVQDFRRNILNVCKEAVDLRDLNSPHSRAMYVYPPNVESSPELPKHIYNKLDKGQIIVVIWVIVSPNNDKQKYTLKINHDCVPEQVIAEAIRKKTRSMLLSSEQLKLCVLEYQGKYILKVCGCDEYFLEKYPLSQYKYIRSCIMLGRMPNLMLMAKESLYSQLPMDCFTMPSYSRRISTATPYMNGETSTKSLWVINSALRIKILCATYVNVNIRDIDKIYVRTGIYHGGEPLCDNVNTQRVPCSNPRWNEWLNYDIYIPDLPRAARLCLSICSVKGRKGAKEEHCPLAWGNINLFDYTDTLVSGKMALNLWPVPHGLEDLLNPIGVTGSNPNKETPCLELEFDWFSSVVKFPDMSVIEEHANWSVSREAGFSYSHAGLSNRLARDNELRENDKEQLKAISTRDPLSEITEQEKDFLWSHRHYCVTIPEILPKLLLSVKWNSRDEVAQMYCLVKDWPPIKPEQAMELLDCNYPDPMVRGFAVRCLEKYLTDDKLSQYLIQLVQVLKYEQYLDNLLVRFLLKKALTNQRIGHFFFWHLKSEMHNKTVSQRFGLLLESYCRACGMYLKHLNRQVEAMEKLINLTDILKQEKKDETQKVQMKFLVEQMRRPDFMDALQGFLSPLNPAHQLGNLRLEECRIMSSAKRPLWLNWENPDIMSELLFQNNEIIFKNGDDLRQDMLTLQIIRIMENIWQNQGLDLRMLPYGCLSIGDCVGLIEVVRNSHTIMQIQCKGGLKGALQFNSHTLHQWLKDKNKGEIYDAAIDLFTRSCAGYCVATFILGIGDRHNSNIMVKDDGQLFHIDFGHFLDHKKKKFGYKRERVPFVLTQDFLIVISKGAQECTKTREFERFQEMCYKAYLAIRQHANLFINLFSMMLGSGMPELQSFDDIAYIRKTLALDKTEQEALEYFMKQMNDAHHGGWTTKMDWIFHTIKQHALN

O=C(O)C(F)(F)C(F)(F)C(F)(F)C(F)(F)C(F)(F)C(F)(F)C(F)(F)F  NOAEL (IgM production suppression; C57BL/6 mouse, adult): 1.88 mg/kg body weight
CNS(=O)(=O)Nc1nccc(Cc2c(C)c3ccc(Oc4ncccn4)cc3oc2=O)c1F  maximum tolerated dose (human patients; oral, 7 days on, 7 days off): 2.7 mg
O=C(O)C(F)(F)C(F)(F)C(F)(F)C(F)(F)C(F)(F)C(F)(F)C(F)(F)F  renal clearance (human; mean): 0.044 mL/day/kg
C1=Cc2cccc3cccc1c23  Vmax (substrate; human liver microsomes): 0.241 nmol/min/mg
O=c1ccc2ncc(=O)n3c2n1C[C@H]3CN1CCC(NCc2cc3c(cn2)OCCC3)CC1  dose eliminated by metabolism (urine plus faeces; intravenous; baseline: dose): ~19%
O=C(O)C(F)(F)C(F)(F)C(F)(F)C(F)(F)C(F)(F)C(F)(F)F  renal clearance (human, young female): 0.17 mL/day/kg
Nc1ncc(-c2nc(N3CCOCC3)nc(N3CCOCC3)n2)c(C(F)F)n1  remaining binding (Phosphatidylinositol 4,5-bisphosphate 3-kinase catalytic subunit alpha isoform (PIK3CA, Homo sapiens, UniProt P42336, Q546K); KinomeScan competition binding; 10 µM): 0%
COc1ccc(C[C@@H](C)[C@@H](C)Cc2ccc(OC)c(OC)c2)cc1OC  LD50 (mouse; intraperitoneal): 300 mg/kg
CC(C)c1cccc(=O)c(O)c1  tolerated dose (mouse; dietary, long-term daily dosing): 100 mg/kg
NC1CCCCC1N.O=C([O-])C(=O)[O-].[Pt+2] (centres unmarked)  terminal half-life (refers to: total platinum; mouse, plasma; intravenous, 8.34 mg Pt/kg): 0.0342 days
O=C(O)C(F)(F)C(F)(F)C(F)(F)C(F)(F)C(F)(F)C(F)(F)C(F)(F)F  fraction unbound (plasma): 0.005 and 0.0048
c1cc2ccc3cccc4ccc(c1)c2c34  Vmax (substrate; human liver microsomes): 0.088 nmol/min/mg
C=C[C@@H]1C[C@]1(NC(=O)[C@@H]1C[C@@H]2CN1C(=O)[C@H](C(C)(C)C)NC(=O)O[C@@H]1C[C@H]1CCCCCc1nc3ccc(OC)cc3nc1O2)C(=O)NS(=O)(=O)C1CC1  IC50 (CYP2C19; human liver microsomes): > 100000 nM
CC[C@H](C)CCCCC(=O)N[C@@H](CCN)C(=O)N[C@H](C(=O)N[C@@H](CCN)C(=O)N[C@H]1CCNC(=O)[C@H]([C@@H](C)O)NC(=O)[C@H](CCN)NC(=O)[C@H](CCN)NC(=O)[C@H](CC(C)C)NC(=O)[C@@H](CC(C)C)NC(=O)[C@H](CCN)NC1=O)[C@@H](C)O  steady-state average concentration threshold (nephrotoxicity risk; patients, plasma): > 2 mg/L
CCN(CC)N=O  mutation frequency (fingerprint mutation, refers to: T>G substitution; mouse, liver; concentration not given): increased
CCCCCOc1ccc(-c2ccc(-c3ccc(C(=O)N[C@H]4C[C@@H](O)[C@@H](O)NC(=O)[C@@H]5[C@@H](O)[C@@H](C)CN5C(=O)[C@H]([C@@H](C)O)NC(=O)[C@H]([C@H](O)[C@@H](O)c5ccc(O)cc5)NC(=O)[C@@H]5C[C@@H](O)CN5C(=O)[C@H]([C@@H](C)O)NC4=O)cc3)cc2)cc1  clearance (ICU patients; 200/100 mg): 1.6 ± 0.6 L/h
COc1cc2c(Oc3ccc4[nH]c(C)cc4c3F)ccnc2cc1OCC1(N)CC1  NOAEL (Beagle dog; oral): 0.12 mg/kg
CCc1c2c(nc3ccc(OC(=O)N4CCC(N5CCCCC5)CC4)cc13)-c1cc3c(c(=O)n1C2)COC(=O)[C@]3(O)CC  NOAEL (refers to: offspring development; rat; dosing before to early pregnancy): 6 mg/kg
COC(=O)[C@@H]1C[C@H](OC(C)=O)C(=O)[C@H]2[C@@]1(C)CC[C@H]1C(=O)O[C@H](c3ccoc3)C[C@]21C  Ki (kappa opioid receptor L212A): 1.7 ± 1 nM
O=S(=O)(O)C(F)(F)C(F)(F)C(F)(F)C(F)(F)C(F)(F)C(F)(F)C(F)(F)C(F)(F)F  half-life (mice, male): 43 days

Excerpt of the above:
CCN(CC)N=O  mutation frequency (fingerprint mutation, refers to: T>G substitution; mouse, liver; concentration not given): increased
O=C(O)C(F)(F)C(F)(F)C(F)(F)C(F)(F)C(F)(F)C(F)(F)C(F)(F)F  fraction unbound (plasma): 0.005 and 0.0048
